# Published values collected from several papers.
# Every numbered part comes from another study and shows a few of its results, in no order. Changes are numbered by the printed parent chain.

# Sample 1
# Target: RNA binding protein fox-1 homolog 2, RRM domain, GST-SBP tag (RBFOX2, Homo sapiens, UniProt O43251-10, residues 100-194)
# Technique: RNA Bind-n-Seq
# Molecule type: RNA
# Sample: in vitro
# Tested at: 365 nM
# Setting: natural RNA segment, single round, ends assumed
# Reference: no-protein control
# Reading: higher = stronger binding
# Residues (chain): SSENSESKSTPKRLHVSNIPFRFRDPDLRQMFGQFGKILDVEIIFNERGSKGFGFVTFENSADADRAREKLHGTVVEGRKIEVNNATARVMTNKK
Oligonucleotide,RBNS enrichment (R)
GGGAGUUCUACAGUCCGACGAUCAUGGUCAAUGGUUGUAAUCCCAGCACUACAAGGCAGGAAGAUCAUAAGUUCAAGGUCAUUCUUAUCUAUAUAAUGAGUUUAAGGCAGUCUAAGCUACAUGAGACCCUGUUUGGAAUUCUCGGGUGCCAA,0.293
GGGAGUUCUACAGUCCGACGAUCCACAAUCAUGCCAGCCAACAUUCCAGAAUUCUGCUGAGAACUCCAAGUCUGUGAGGGGAGAGGUUUUACAAGCCAGACAGGCCUGGGGGACUGCAGUCCCCAAGGAGACCUGGAAUUCUCGGGUGCCAA,0.519
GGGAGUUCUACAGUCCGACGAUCAGUUGAGCUUUUAAAAUAUUAUUUAUAGACAAUAGAAGUAUUUCUGAACAUAUCAAAUAUAAAUUUUUUUAAAGAUCUAACUGUGAAAACAUACAUACCUGUACAUAUUUUGGAAUUCUCGGGUGCCAA,0.664
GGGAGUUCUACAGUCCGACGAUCCUGGUACCUUCCCCCAGCUUUCCAUCUGAGGACCAGAAAAGUUGUGUCUCCCUUAGAUGAGAUCUAGACGCCCCCAAAUCCUUGAGAUGUGGGUAUAGCUCAGGGUAAGCUGGAAUUCUCGGGUGCCAA,0.334
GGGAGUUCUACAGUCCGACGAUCUCUGCAGGCAUCUCUGUCUGAGAGCAGUGGGGGCUGCCCUCUGUAGAGCUGUGAGAGCAGUGGGGGCUGCCCUCUGUAGAGCUGUGAGAGCAGUGGGGGGCUGCCCUCUGUGGAAUUCUCGGGUGCCAA,0.578
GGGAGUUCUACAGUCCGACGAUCGAUGAAGCAUGUACGUAUUAUUUAUAUGAUGGAAUUUCACGUUUUUAUGUAAGCAUGAAACACAGGCAGUAUGAGAGAAAGCAAGGCCCGUCAUGCUGUCCGUACACUACUGGAAUUCUCGGGUGCCAA,7.02
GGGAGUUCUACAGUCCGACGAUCACUGGGUGUUUAGUGCUAAACAGCCAGAACCACAGAGACAGUAUUGUAUGACCAAAGCAUUUGAUGCCAAAAUUUGACGUUAAAGUAAUGAUUUGAUUUCCUGCCCUGGUUGGAAUUCUCGGGUGCCAA,0.31
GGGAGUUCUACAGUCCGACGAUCUACCUGCUUCUGACUUUAAGCAAAAGGAAAGAAAACUACCUUUUUAUAUAAUGCACAACUGUUGAUGACUGGCUGUAUAGUUUUUAGUCUCUGUAGCUAAUUUAAUUUGCUGGAAUUCUCGGGUGCCAA,0.408
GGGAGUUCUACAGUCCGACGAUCUCUUUCAUAGAUAGCCAUUACAUUUCUUUAAAUUUUUCAAUGCCGAUGUGUAUUCUAUAAGAGAAUAGCUUCCUAAUUAAGUCGGUUUAGAAGAAGGUGCUGGUGUCACAUGGAAUUCUCGGGUGCCAA,0.463
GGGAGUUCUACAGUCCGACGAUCUGACUCCUGAAGCAUCAGCCCUUGUCAUACUGUAUUGACUGUGUACGUGCCUUUCACCUUGAGCAUGCUUCAGGAUUUUUUUUUAAACCACAGAACUUGAAUACAUGAGGUGGAAUUCUCGGGUGCCAA,16.3
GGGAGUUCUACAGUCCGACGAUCCCAACUUCUAACCACAAUAGUGACUCUGUGCUUGUCUGUUUAGUUCUGUGUGUAAAUGAAAUGUGGAAAUGACCCUCCCUGCCCCAGCUGGCUGCCCUCCCCUUUCCUUUUGGAAUUCUCGGGUGCCAA,0.881
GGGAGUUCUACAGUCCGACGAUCUUGUUAAAAUAAAAGGUGUCACUGUGGUAGGCAUUUGGCAUAUUUUGUGGACUCAGUCAAGCAACCACAGUCUGUUAAUCAUUUCUCUAUGCUCAGAUGUCAGAUCCUCUUGGAAUUCUCGGGUGCCAA,0.44

# Sample 2
# Target: CCND1, cyclin fold, Cln2 fusion (human)
# Technique: yeast growth competition, sequencing
# Sample: yeast
# Setting: weak parent motif
# Reference: not given
# Reading: higher = stronger binding
# Starting sequence: MASTL docking peptide (human); PMIAKNLMCELDE; partner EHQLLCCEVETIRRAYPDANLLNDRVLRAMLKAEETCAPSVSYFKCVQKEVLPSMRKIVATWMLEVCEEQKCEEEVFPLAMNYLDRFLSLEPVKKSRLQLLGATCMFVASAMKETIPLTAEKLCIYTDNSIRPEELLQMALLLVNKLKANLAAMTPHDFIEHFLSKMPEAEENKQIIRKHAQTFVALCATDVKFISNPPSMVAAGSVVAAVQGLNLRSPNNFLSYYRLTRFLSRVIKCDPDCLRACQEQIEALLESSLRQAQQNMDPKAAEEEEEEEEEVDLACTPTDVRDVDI
Substitution,normalised enrichment score
L11P,0.00834
N6D,0.253
L7G,-0.254
N6T,0.0802
C9D,0.211
C9Y,-0.121
I3F,0.149
L7Q,0.115
C9E,-0.437
L11V,0.138
C9V,-0.0193
L11I,0.106
I3Q,0.11
M8S,0.471
I3C,0.4
M8N,-0.0685
K5R,0.709
C9T,0.0693
K5E,-0.121
E10C,-0.0725
N6V,-0.121
D12P,-0.00498
I3M,0.0716
I3E,0.193
C9A,0.227

# Sample 3
# Target: Histone acetyltransferase KAT6A, winged helix 2, GST fusion (KAT6A, Homo sapiens, UniProt Q92794, residues 85-181)
# Technique: protein binding microarray
# Molecule type: double-stranded DNA, one strand shown
# Sample: in vitro
# Tested at: not given
# Setting: 8-mer, flanks averaged, mean of 2 arrays, mostly near background
# Reference: not given
# Reading: higher = stronger binding
# Construct (chain): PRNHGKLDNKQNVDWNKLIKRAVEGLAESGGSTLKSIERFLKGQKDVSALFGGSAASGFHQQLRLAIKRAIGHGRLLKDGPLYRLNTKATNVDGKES
Oligonucleotide,E-score
CCCATTTA,-0.0154
CTGCCCGC,0.176
AGATTGTG,-0.139
AAGCCATA,-0.105
CTACGCCC,0.0561
AGAGGTCG,0.171
CAGTTTCG,0.0291
AACTGTGC,-0.00226
ACAGGTGA,-0.028
ACTAGATG,-0.103
AGCATAAT,-0.0654
GTCTTTGA,0.0281
GGACAGGA,0.095
ATCAAATC,-0.0187
AATTTTCT,-0.0941
ACTCAGCA,0.0298
ATTTTACG,0.0527
CACCTCAA,0.0198
GACTCGGC,0.00919
ATCTACCG,-0.0652
ACATGGAA,-0.0402
GAACTCTC,-0.0371
CTACATTA,-0.0829
ACGAAAGT,-0.0984

# Sample 4
# Target: ABI1, truncated, D143A, DHFR fusion (Arabidopsis thaliana)
# Technique: DHFR PCA, deep sequencing
# Sample: yeast
# Setting: methotrexate growth selection, single substitutions
# With: (+)-ABA 0.032 µM
# Reference: wild-type fitted maximum
# Reading: higher = stronger binding
# Starting sequence: PYL1, truncated, DHFR fusion (Arabidopsis thaliana); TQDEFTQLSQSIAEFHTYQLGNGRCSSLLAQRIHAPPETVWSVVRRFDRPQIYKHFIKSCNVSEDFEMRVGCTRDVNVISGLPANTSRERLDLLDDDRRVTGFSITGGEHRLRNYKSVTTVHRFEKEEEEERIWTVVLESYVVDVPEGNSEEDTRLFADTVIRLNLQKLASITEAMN
Substitution,relative binding score [%]
H34T,1.88
S104A,0.167
R132N,43.8
Y18K,-2.88
R88E,9.61
G81E,4.95
D92T,1.14
K126V,38.9
P36L,9.72
D92W,-3.72
K54F,-4.25

# Sample 5
# Target: RING finger protein unkempt homolog, zinc fingers 1-6, SBP tag (UNK, Homo sapiens, UniProt Q9C0B0, residues 30-357)
# Sequence of UniProt Q9C0B0 (30-357, looked up): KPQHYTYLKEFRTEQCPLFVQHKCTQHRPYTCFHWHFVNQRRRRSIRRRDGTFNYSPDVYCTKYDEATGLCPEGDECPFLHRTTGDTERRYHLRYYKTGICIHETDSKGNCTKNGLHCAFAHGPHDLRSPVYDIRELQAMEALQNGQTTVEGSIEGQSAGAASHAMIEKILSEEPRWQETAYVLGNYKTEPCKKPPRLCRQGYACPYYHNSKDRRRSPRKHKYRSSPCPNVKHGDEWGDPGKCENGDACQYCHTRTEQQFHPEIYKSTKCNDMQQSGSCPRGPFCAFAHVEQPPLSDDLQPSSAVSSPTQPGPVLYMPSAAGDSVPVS
# Technique: RNA Bind-n-Seq
# Molecule type: RNA
# Sample: in vitro
# Tested at: 100 nM
# Setting: RNA with constant flanks, vertebrate orthologous sites, ends assumed
# Reference: input RNA pool
# Reading: higher = stronger binding
Oligonucleotide,bound/input enrichment
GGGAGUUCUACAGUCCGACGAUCCCCCGGUUUUAGAUGUGAUAUCUAGGCUUUCAUUCCAGUUUGUUUUGUCUUUUUCUUGUUUAGAUACCACCUUUUAAAUUCUUGCAUUUUAGUAAGAAAGCUACCUUUUUAUGGAUGUUACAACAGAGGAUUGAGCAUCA,0.869 ratio
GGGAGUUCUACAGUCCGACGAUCAAUGACAGCAAAAGAGCCAAGCAGGAGCAUUUGAGUUUCUUUUGUAAAAUGUAAAAUGACUAAAUUUAGACUGUCUCUCCUUGUACAGUUUUAAAAAUAAAUACCUCAGUGCUGUUUUCCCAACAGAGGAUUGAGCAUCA,0.491 ratio
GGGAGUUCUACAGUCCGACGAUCAUAAUCACUAAUUGUAAUCGGAAUAAAGUGUAACAUUGUGUAGCUUUUUUUUGUAUAAAAUAGACAAAUAGAAAUGGUCCAAUUAGUUUCCUUUUUAAUAUGCUUAAAAUAAGCAGGUGGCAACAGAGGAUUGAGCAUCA,1.32 ratio
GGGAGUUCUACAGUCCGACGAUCCAAGACUUAUUGUGGCAUAUAGUCAACAUGGAAGUAGACCAGCUCUGCCGAUUUGAAAUUUAGAUUUUUUAAAAAUUAUGUACUGGGGACAGGUCUUUGUCGCUUUACAUUGCUUCCUAGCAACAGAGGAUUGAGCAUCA,3.2 ratio
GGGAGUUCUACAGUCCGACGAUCGCUGUUAAUGCACUGUUAUACCAGGCAUUGUCUGAAGUUAGUGUAAUCUAGAAGAUUUUAUAGUUUUAUUUUAAUGAAGUAUGGAUUGAAGCAAAGCUGUUAGGAGUAUGUAGUCUUUUACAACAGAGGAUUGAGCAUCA,3.09 ratio
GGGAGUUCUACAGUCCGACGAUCUAUUAGUGUUGUACCAGCCUAUUAACCUCUUGUCUGUGCACAGCUUCAAAUGUUACCGUCUAGUUAGAUUUUUAUUUAAAAUAUGAAAAACUGCUUUUCCCAAGAUGUUUUUUAAAAACACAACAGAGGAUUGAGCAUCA,1.16 ratio
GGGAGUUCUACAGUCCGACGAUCCUCUAUGGGCCUCGCAGAGUUGAAAUAAUGGAAGAGGAAAGUGAACAGUAAUCUUCGUUGUAAUAUUUAUGCUUAGGUGUGAAAUAAAUACUAUUUGUUGAUCAUUUUGGUAAUCCAGAACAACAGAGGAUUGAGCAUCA,0.304 ratio
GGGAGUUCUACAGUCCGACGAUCAUGUCCUGUUACCCGGUGGUAUUUUAAAUAUCCACAGUACUCACUUUUUCCAAACGAUCCUAAUAAUUGCCUAGAAAUAUCUUUUUCUUACCUGUUAUUUAUCAAUUUUUCCCAGUAUUUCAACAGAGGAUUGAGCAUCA,0.453 ratio
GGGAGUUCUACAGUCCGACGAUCUAUAAUUAUGAAAAUCUAAAGGAUUUUUAAUGUUUAAUUUCCCCUGGCAUAUUAAGACAUCUUUUUUCCAGGCAAAUCACUCAGCGUGUGAGUGUGCGUGCACAUGUUACAAAGACAACUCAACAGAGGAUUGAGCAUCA,0.185 ratio
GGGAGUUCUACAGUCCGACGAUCAUCUUUUUAACUUCAUGUUGGCCUGCACAUGAUUCGAGUCCUGUGUUGUCUUUUUCUUACACAGUUUGUUUGUCACUCUUUUUUUUCUUUCUCUCAGGCGAAGGGCUAGAGUUAAAAAAACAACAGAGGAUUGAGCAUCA,0.622 ratio
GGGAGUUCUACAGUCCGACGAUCUUUGAGGAGGGAGAAAGACAAGUUUCUUCUCUCUUUAAAGUAAAACUGAAAUAGUUUUCUUUUAUUUCUGUCUUGGAAAACAAAGAUGGCCUAUUCUCUUAACUGUGUUACAAUACCAUCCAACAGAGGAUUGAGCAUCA,0.235 ratio

# Single results of other studies
Substance,target,test,system,conditions,how to read,measurement,result
"PhoQ, residues 284 288 289 292 302 303 SIHMAM","PhoP, residues 12 14 15 18 19 TPLRH (Escherichia coli, UniProt P23836)","Sort-seq, refers to: YFP reporter",E. coli,"PhoQ-PhoP variant library, with: 10 µM Mg2+","reference: high Mg2+ state, higher = stronger signaling",fold induction,0.904
